Published values from different studies.
Every numbered part comes from another study and shows a few of its results, in no order. Changes are numbered by the printed parent chain.
Chain of UniProt P35368 (whole entry, looked up): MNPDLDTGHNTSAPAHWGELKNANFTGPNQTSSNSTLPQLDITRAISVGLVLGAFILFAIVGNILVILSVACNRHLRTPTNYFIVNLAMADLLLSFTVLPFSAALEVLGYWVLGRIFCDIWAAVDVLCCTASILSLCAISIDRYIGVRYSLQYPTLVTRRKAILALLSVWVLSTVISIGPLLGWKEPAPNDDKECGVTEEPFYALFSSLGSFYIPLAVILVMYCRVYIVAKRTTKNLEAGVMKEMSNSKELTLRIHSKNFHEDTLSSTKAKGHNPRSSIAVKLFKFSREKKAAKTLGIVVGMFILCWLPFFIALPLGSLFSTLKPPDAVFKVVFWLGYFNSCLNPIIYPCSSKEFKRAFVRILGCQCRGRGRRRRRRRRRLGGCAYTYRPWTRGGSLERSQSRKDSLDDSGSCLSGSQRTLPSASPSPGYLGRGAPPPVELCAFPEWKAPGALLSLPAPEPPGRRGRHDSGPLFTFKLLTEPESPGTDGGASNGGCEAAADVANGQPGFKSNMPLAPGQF

Block 1
Target: ABI1, truncated, D143A, DHFR fusion (Arabidopsis thaliana)
Technique: DHFR PCA, deep sequencing
Matrix: yeast
Notes: methotrexate growth selection, single substitutions
With: (+)-ABA 4.8 µM
Relative to: wild-type fitted maximum
Direction: higher = stronger binding
Starting sequence: PYL1, truncated, DHFR fusion (Arabidopsis thaliana); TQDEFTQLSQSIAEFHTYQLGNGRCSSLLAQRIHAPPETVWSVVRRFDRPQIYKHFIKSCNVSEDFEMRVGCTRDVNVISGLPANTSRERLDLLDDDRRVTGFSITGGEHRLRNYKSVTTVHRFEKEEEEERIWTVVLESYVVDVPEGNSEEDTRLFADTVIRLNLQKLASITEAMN; partner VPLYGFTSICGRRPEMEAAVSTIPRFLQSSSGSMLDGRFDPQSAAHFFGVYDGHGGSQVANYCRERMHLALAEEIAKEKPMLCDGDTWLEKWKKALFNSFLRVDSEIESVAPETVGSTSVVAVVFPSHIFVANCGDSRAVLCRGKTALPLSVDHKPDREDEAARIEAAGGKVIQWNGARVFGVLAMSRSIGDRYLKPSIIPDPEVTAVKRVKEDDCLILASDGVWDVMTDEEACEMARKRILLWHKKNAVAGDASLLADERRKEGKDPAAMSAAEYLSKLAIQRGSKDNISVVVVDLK
Under “relative binding score”, `E174T` is recorded as 38.4%.
`F47N`: “relative binding score” -31.4%.
`T1K`: “relative binding score” 70.4%.
`D65P` — result for “relative binding score”: 81.4%.
`I12Y` — result for “relative binding score”: 12%.
`V121M` — result for “relative binding score”: -4.05%.
For `S87H`, “relative binding score” read 21.8%.
For `Y141V`, “relative binding score” read 2.25%.

Block 2
Target: Centromere-binding protein 1, full length, His-tagged (CBF1, Saccharomyces cerevisiae, UniProt P17106, residues 1-351)
Chain of UniProt P17106 (whole entry, looked up): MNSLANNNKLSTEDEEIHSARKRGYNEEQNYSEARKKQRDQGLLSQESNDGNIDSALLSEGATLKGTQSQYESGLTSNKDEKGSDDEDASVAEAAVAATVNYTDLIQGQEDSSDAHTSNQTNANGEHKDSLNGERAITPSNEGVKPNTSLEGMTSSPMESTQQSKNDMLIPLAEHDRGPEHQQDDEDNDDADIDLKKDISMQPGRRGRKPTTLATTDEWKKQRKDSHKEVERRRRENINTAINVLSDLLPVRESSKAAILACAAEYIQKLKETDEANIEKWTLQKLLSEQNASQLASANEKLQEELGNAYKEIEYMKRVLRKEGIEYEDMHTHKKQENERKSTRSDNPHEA
Technique: competition protein-binding microarray
Form: double-stranded DNA, one strand shown
Matrix: in vitro
Tested at: 2 µM
Notes: whole 60-bp probe, lowest competitor level
With: Pho4 competitor, 0.05 µM
Direction: higher = stronger binding
`TAGCTGACATCCAAGCATGCGTGGAAGATTTCTTAAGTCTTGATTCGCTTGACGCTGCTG` gave a fluorescence intensity of 61.2 a.u.
For `ATCCTCATGTTCTTCCACGTGAAGATCGCCCGCTTCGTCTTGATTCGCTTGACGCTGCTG`, the fluorescence intensity was 431 a.u.
`ACAAAATTGCAGGGCAACGTGTATCATTCAGTAGAGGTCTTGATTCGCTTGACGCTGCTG` has a fluorescence intensity of 95.8 a.u.
`CTCTGCGGTGGCAGCAACGTGACGGTATAGTGTGTAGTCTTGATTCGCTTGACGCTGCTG` gave a fluorescence intensity of 371 a.u.
With `AAATTACTAAGTTGTGTTGTGGGTGACGCCGTATGAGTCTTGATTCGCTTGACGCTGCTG` the fluorescence intensity was 68.3 a.u.
`AAAGCGGTAATTTTTCACGTGCTATCAAATATCTATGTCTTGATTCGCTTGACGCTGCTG` gave a fluorescence intensity of 2660 a.u.
The fluorescence intensity of `TGTCACAGTAGTTATAGCTAAGGTCAATAAGTAGTTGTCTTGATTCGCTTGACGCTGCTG` is reported as 67.9 a.u.
`AGAAACTTCAACTCACATATGCACTATGGATGCCAAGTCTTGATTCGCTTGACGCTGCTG` gave a fluorescence intensity of 68.3 a.u.

Block 3
Target: Prothrombin, mature alpha-thrombin (F2, Homo sapiens, UniProt P00734)
Technique: aptamer microarray, sandwich
Form: DNA with 2'F-ANA
Matrix: in vitro
Tested at: 200 nM
Notes: whole 15-mer aptamer, many near background
With: Cy3 exosite-II aptamer, 400 nM
Direction: higher = stronger binding
Oligonucleotide: GGTTGGTGTGGTTGG
`2'F-ANA at 2 3 5 6 8 10 13 14 15` — result for “mean fluorescence intensity”: 60 a.u.
`2'F-ANA at 5 6 7 11 12 15`: “mean fluorescence intensity” 111 a.u.
Under “mean fluorescence intensity”, `2'F-ANA at 1 2 3 4 7 9 11 12` is recorded as 269 a.u.
Under “mean fluorescence intensity”, `2'F-ANA at 1 3 6 7 8 9 10` is recorded as 86.7 a.u.
Under “mean fluorescence intensity”, `2'F-ANA at 1 3 5 11 12 13` is recorded as 111 a.u.
`2'F-ANA at 1 3 5 7 9 13` — result for “mean fluorescence intensity”: 58.5 a.u.
Under “mean fluorescence intensity”, `2'F-ANA at 2 4 8 10 15` is recorded as 111 a.u.
`2'F-ANA at 1 3 7 8 11 14`: “mean fluorescence intensity” 104 a.u.

Mixed results
With `Cc1ncc(-c2cc(Cl)ccc2F)cc1-n1c(=O)n(CC(N)=O)c2ccccc21` the inhibition was 5.45% (Alpha-1B adrenergic receptor (ADRA1B, Homo sapiens, UniProt P35368); ligand displacement; 10 µM).

Excerpt of the above (block 3):
`2'F-ANA at 1 3 5 7 9 13` — result for “mean fluorescence intensity”: 58.5 a.u.
`2'F-ANA at 5 6 7 11 12 15`: “mean fluorescence intensity” 111 a.u.
